Measured values from different studies.
Compare with care: the assays were run in different laboratories.
Organism: Escherichia coli

c1ccc(CN2CCOCCOCCN(CCCCCCCCCCCCN3CCOCCOCCN(CCCCCCCCCCCCN4CCOCCOCCN(Cc5ccccc5)CCOCCOCC4)CCOCCOCC3)CCOCCOCC2)cc1 — MIC (tetracycline-resistant (pBR322)): 5 µM
CCN1CCC(CCNCc2cc3ccccc3nc2SCc2ccccc2)CC1 — MIC (microbial growth, broth dilution): 64 µg/mL
CC[C@H](C)[C@H](NC(=O)[C@@H](CCCNC(=N)N)NC(=O)[C@H](CCCNC(=N)N)NC(=O)[C@@H]1CCCN1C(=O)[C@@H]1CCCN1C(=O)[C@H](CCCNC(=N)N)NC(=O)[C@@H]1CCCN1C(=O)[C@H](CCCNC(=N)N)NC(=O)[C@@H]1CCCN1C(=O)[C@H](CCCNC(=N)N)NC(=O)[C@H](Cc1ccc(O)cc1)NC(=O)[C@@H]1CCCN1C(=O)[C@@H]1CCCN1C(=O)[C@H](CCCCN)NC(=O)[C@H](CC(=O)O)NC(=O)[C@@H](N)C(C)C)C(=O)N[C@@H](Cc1ccc(O)cc1)C(=O)N[C@@H](CC(N)=O)C(=O)N[C@H](CCCNC(=N)N)C(N)=O — MIC (broth microdilution; ATCC 25922; 18 h, 37 °C, 25% MHB2): 16 µg/mL
Cn1nnnc1SCc1nn(C)c2nc(N)[nH]c(=O)c2c1=O — MIC (microbial growth, broth dilution; BW25113; 18 h): 25 µg/mL
COc1ccc(O)c(/C=N/[C@@H]2CCCC[C@@H]2/N=C/c2c(O)ccc3ccc(OC)cc23)c1 — MIC (microbial growth, broth dilution; clinical isolate): > 40 µM
COc1cc(C(=O)Nc2ccc(C(=O)O)c(O)c2OC)ccc1NC(=O)c1ccc(NC(=O)[C@H](Cc2c[nH]nn2)NC(=O)c2ccc(NC(=O)/C(C)=C/c3ccc(O)cc3)cc2)cc1 — MIC (broth microdilution; BW25113): 0.125 µg/mL
CC[C@H]1OC(=O)[C@H](C)[C@@H](OC(=O)Cc2cccc(Cl)c2)[C@H](C)[C@@H](O[C@@H]2O[C@H](C)C[C@H](N(C)C)[C@H]2O)[C@](C)(OC)C[C@@H](C)C(=O)[C@H](C)[C@@H](O)[C@]1(C)O — MIC (lpxC): 16 µg/mL
COc1ccc2ccc(O)c(/C=N/[C@H]3CCCC[C@H]3/N=C/c3cc(C(C)(C)C)ccc3O)c2c1 — MIC (microbial growth, broth dilution): > 40 µM
CCOc1c(NC(=O)c2ccc(NC(=O)c3ccc(NC(=O)[C@H](Cc4c[nH]nn4)NC(=O)c4ccc(NC(=O)/C(C)=C/c5ccc(O)cc5)cc4)cc3)c(OCC)c2O)ccc(C(=O)O)c1O — MIC (broth microdilution; DSM 1116): 0.031 µg/mL
CCC(CC)c1cc(CCN2CCCNCC2)nc(-c2cccnc2)n1 — MIC (microbial growth, broth dilution; ATCC25922): > 64 µg/mL
CCCCCCCCCC[N+](C)(C)CCCCCCCCCCOc1cc(OCCCCCCCCCC[N+](C)(C)CCCCCCCCCC)cc(OCCCCCCCCCC[N+](C)(C)CCCCCCCCCC)c1.[Br-].[Br-].[Br-] — MIC (MC4100): 32 µM
CO[C@H]1O[C@H](COC(c2ccccc2)(c2ccccc2)c2ccccc2)[C@@H](OS(=O)(=O)c2ccccc2)[C@H](OS(=O)(=O)c2ccccc2)[C@H]1OS(=O)(=O)c1ccccc1 — MIC (microbial growth, broth dilution): 1.5 µg/mL
CCOc1c(NC(=O)c2ccc(NC(=O)c3ccc(NC(=O)[C@H](Cc4c[nH]nn4)NC(=O)c4ccc(NC(=O)/C(C)=C/c5ccc(O)cc5)cc4)cc3)c(OC)c2O)ccc(C(=O)O)c1O — MIC (broth microdilution; ciprofloxacin-resistant): 0.5 µg/mL
COc1ccc(/C=N/[C@@H]2CCCC[C@@H]2/N=C/c2c(O)ccc3ccc(OC)cc23)c(O)c1 — MIC (microbial growth, broth dilution; clinical isolate): > 40 µM
CC[C@H]1OC(=O)[C@H](C)[C@@H](OC(=O)Cc2c(F)cc([N+](=O)[O-])cc2F)[C@H](C)[C@@H](O[C@@H]2O[C@H](C)C[C@H](N(C)C)[C@H]2O)[C@](C)(OC)C[C@@H](C)C(=O)[C@H](C)[C@@H](O)[C@]1(C)O — MIC (microbial growth; ATCC25922): > 32 µg/mL
Cn1nc(CCC(=O)O)c(=O)c2c(=O)[nH]c(N)nc21 — MIC (microbial growth, broth dilution; BW25113; 18 h): > 100 µg/mL
CC1(C)[C@H](NC(=O)/C(=N\OCc2cc(=O)c(O)cn2O)c2csc(N)n2)C(=O)N1OS(=O)(=O)O — MIC (agar dilution; 16-1 ESBL): 2 µg/mL
C/C(=C\c1ccc(O)cc1)C(=O)Nc1ccc(C(=O)N[C@@H](Cc2c[nH]nn2)C(=O)Nc2ccc(C(=O)Nc3ccc(C(=O)Nc4ccc(C(=O)O)cc4)c(O)c3)cc2)cc1 — MIC (broth microdilution; ciprofloxacin-resistant): 0.5 µg/mL
C#CCOc1ccc(CN[C@@]2(C)C[C@H](O[C@H]3[C@H](Oc4c5cc6cc4Oc4ccc(cc4Cl)[C@@H](O)[C@@H](NC(=O)[C@@H](CC(C)C)NC)C(=O)N[C@@H](CC(N)=O)C(=O)N[C@H]6C(=O)N[C@H]4C(=O)N[C@H](C(=O)N[C@H](C(=O)N[C@@H](CCCNC(=N)N)C(N)=O)c6cc(O)cc(O)c6-c6cc4ccc6O)[C@H](O)c4ccc(c(Cl)c4)O5)O[C@H](CO)[C@@H](O)[C@@H]3O)O[C@@H](C)[C@H]2O)cc1OC — MIC (broth microdilution; ATCC 25922; 18 to 20 h): 16 µg/mL
COc1cc(C(=O)O)ccc1NC(=O)c1ccc(NC(=O)c2ccc(NC(=O)[C@H](Cc3c[nH]nn3)NC(=O)c3ccc(NC(=O)/C(C)=C/c4ccc(O)cc4)cc3)cc2)cc1O — MIC (broth microdilution; BW25113): 0.125 µg/mL
CC[C@H]1OC(=O)[C@H](C)[C@@H](OC(=O)Cc2c(F)cccc2F)[C@H](C)[C@@H](O[C@@H]2O[C@H](C)C[C@H](N(C)C)[C@H]2O)[C@](C)(OC)C[C@@H](C)C(=O)[C@H](C)[C@@H](O)[C@]1(C)O — MIC (microbial growth; ATCC25922): > 32 µg/mL
CCCCCCn1cc[n+](CCCCCCOc2cc(OCCCCCC[n+]3ccn(CCCCCC)c3)cc(OCCCCCC[n+]3ccn(CCCCCC)c3)c2)c1.[Br-].[Br-].[Br-] — MIC (MC4100): 0.5 µM
CC[C@H]1OC(=O)[C@H](C)[C@@H](OC(=O)Cc2ccc(C(F)(F)F)cc2)[C@H](C)[C@@H](O[C@@H]2O[C@H](C)C[C@H](N(C)C)[C@H]2O)[C@](C)(OC)C[C@@H](C)C(=O)[C@H](C)[C@@H](O)[C@]1(C)O — MIC (microbial growth; ATCC25922): > 32 µg/mL
CC[C@H](C)[C@H](N)C(=O)N1CCC[C@H]1C(=O)N[C@@H](Cc1ccccc1)C(=O)N[C@@H](Cc1c[nH]c2ccccc12)C(=O)N[C@@H](CCCNC(=N)N)C(=O)N[C@@H](Cc1c[nH]c2ccccc12)C(=O)N[C@@H](CC(C)C)C(=O)N[C@@H](CC(C)C)C(=O)N[C@@H](CCC(N)=O)C(=O)N[C@@H](CCCNC(=N)N)C(=O)N[C@@H](CC(C)C)C(=O)N1CCC[C@H]1C(=O)NCC(=O)O — MIC (broth microdilution; ATCC 25922; 16 h, 37 °C, cation-adjusted Mueller-Hinton broth): 128 µg/mL
NCC(=O)N1CCN(c2cc3c(cc2F)c(=O)c(C(=O)O)cn3C2CC2)CC1 — MIC (microbial growth, broth dilution; K12, MG1655): 2.5 µM
C/C(=C\c1ccc(O)cc1)C(=O)Nc1ccc(C(=O)N[C@@H](Cc2c[nH]nn2)C(=O)Nc2ccc(C(=O)Nc3ccc(C(=O)Nc4ccc(C(=O)O)c(O)c4)c(O)c3)cc2)cc1 — MIC (broth microdilution; DSM 1116): 0.125 µg/mL
CCCCCC(=O)Oc1c(C)c(OC)c2c(/C=C/c3ccccc3)c(CCCC)c(=O)oc2c1C — MIC (microbial growth, broth dilution; ATCC25922): 5000 µg/mL
C#CCOc1ccc(CN[C@@]2(C)C[C@H](O[C@H]3[C@H](Oc4c5cc6cc4Oc4ccc(cc4Cl)[C@@H](O)[C@@H](NC(=O)[C@@H](CC(C)C)NC)C(=O)N[C@@H](CC(N)=O)C(=O)N[C@H]6C(=O)N[C@H]4C(=O)N[C@H](C(=O)N[C@H](C(=O)NCC(N)=O)c6cc(O)cc(O)c6-c6cc4ccc6O)[C@H](O)c4ccc(c(Cl)c4)O5)O[C@H](CO)[C@@H](O)[C@@H]3O)O[C@@H](C)[C@H]2O)cc1OC — MIC (broth microdilution; ATCC 35218, cation-adjusted Mueller-Hinton broth; 18 to 20 h, 37 °C, 0.002% polysorbate 80): 32 µg/mL
CC[C@H]1OC(=O)[C@H](C)[C@@H](OC(=O)Cc2cccc([N+](=O)[O-])c2)[C@H](C)[C@@H](O[C@@H]2O[C@H](C)C[C@H](N(C)C)[C@H]2O)[C@](C)(OC)C[C@@H](C)C(=O)[C@H](C)[C@@H](O)[C@]1(C)O — MIC (tolC): 2 µg/mL
C=C[C@H]1CC1(NC(=O)C12CC(NC(=O)c3ccc(C#N)cc3)(C1)C2)C(=O)Nc1ccc(C(=O)Nc2ccc(C(=O)Nc3ccc(C(=O)O)cc3)c(O)c2OC(C)C)cc1 (some centres unmarked) — MIC (BW25113 ΔacrB): 0.01 µg/mL
CCOc1c(NC(=O)c2ccc(NC(=O)[C@H](Cc3c[nH]nn3)NC(=O)c3ccc(NC(=O)/C(C)=C/c4ccc(O)cc4)cc3)cc2)ccc(C(=O)Nc2ccc(C(=O)O)c(O)c2OC)c1O — MIC (broth microdilution; DSM 1116): 0.031 µg/mL
COc1ccc(/N=N/C(=S)N2CCOCC2)cc1 — MIC (microbial growth, broth dilution; ATCC 8739, ATCC8739; 24 h): > 50 µM
C#CCNC(=O)C1(O/N=C(\C(=O)N[C@@H]2C(=O)N(OS(=O)(=O)O)C2(C)C)c2csc(N)n2)CC1 — MIC (microbial growth, agar dilution; ATCC25): 4 µg/mL
COc1cc(C(=O)O)ccc1NC(=O)c1ccc(NC(=O)c2ccc(NC(=O)[C@H](Cc3c[nH]nn3)NC(=O)c3ccc(NC(=O)/C(C)=C/c4ccc(O)cc4)cc3)cc2)c(OC)c1O — MIC (broth microdilution; BW25113): 0.125 µg/mL
N=C(N)NCCC[C@@H]1NC(=O)[C@H](CCCNC(=N)N)NC(=O)[C@H](CCCNC(=N)N)NC(=O)[C@@H](CCCNC(=N)N)NC(=O)[C@H](Cc2ccc3ccccc3c2)NC(=O)[C@H](Cc2ccc3ccccc3c2)NC(=O)[C@H](Cc2ccc3ccccc3c2)NC1=O — MIC (ATCC 25922): 16 µg/mL

For quick reference, copied from above:
CC[C@H]1OC(=O)[C@H](C)[C@@H](OC(=O)Cc2ccc(C(F)(F)F)cc2)[C@H](C)[C@@H](O[C@@H]2O[C@H](C)C[C@H](N(C)C)[C@H]2O)[C@](C)(OC)C[C@@H](C)C(=O)[C@H](C)[C@@H](O)[C@]1(C)O — MIC (microbial growth; ATCC25922): > 32 µg/mL
c1ccc(CN2CCOCCOCCN(CCCCCCCCCCCCN3CCOCCOCCN(CCCCCCCCCCCCN4CCOCCOCCN(Cc5ccccc5)CCOCCOCC4)CCOCCOCC3)CCOCCOCC2)cc1 — MIC (tetracycline-resistant (pBR322)): 5 µM
